# Assay results from different studies.
# Protocols differ between the studies behind these lines. Numbers after ± are the reported error.
SMILES,test,test system,conditions,scale,quantity,value
O=c1c(OCc2ccccc2)c(-c2cccc([N+](=O)[O-])c2)oc2ccccc12,,diabetic rat,"7.5 mg/kg, p-nitrophenyl β-glucoside induced",,serum alanine aminotransferase,40.9 ± 2.96 IU
COc1ccc2c(c1)c(CC(=O)OCC(=O)OC(C)(C)C)c(C)n2C(=O)c1ccc(Cl)cc1,acetic acid writhing test,BALB/c mouse,"intraperitoneal, 30 mg/kg",relative to: negative control,analgesia,73.3%
COc1c2c(cc3oc(CO)cc(=O)c13)O[C@H](C(C)(C)O)C2,,"mouse, xylene ear edema","oral, 4 mg/kg",,ear edema weight increase,2.16 ± 0.36 mg
CC(C)(O)c1ccc(N2Cc3c(ccnc3-c3ccc(F)cc3OCC(F)(F)F)C2=O)cc1,,"Gaucher disease mouse model, brain","30 mg/kg, single dose",relative to: vehicle,glucosylsphingosine level,80 ± 2%
O=c1c(OCc2ccccc2)c(-c2ccc([N+](=O)[O-])cc2)oc2ccccc12,,diabetic rat,"5 mg/kg, 28 days, p-nitrophenyl β-glucoside induced",,serum LDL cholesterol,140 ± 4.14 mg/dL
CC(=O)Nc1cccc(OCc2nnc(SCc3ccccc3C)o2)c1,forced swimming test,mice,"40 mg/kg, 0.5 h",relative to: control,immobility duration decrease,15.6%
CCCC[C@H](NC(=O)[C@@H](NC(=O)[C@H](CC(=O)O)NC(=O)[C@H](CCC(N)=O)NC(=O)[C@H](CC(C)C)NC(=O)[C@H](CC(C)C)NC(=O)[C@H](CCCN)NC(=O)[C@H](CCCNC(=N)N)NC(=O)[C@H](C)NC(=O)[C@H](CO)NC(=O)[C@H](CC(C)C)NC(=O)[C@H](CCC(N)=O)NC(=O)[C@H](CC)NC(=O)[C@H](CC(C)C)NC(=O)[C@@H](NC(=O)[C@H](CCCN)NC(=O)[C@H](CCCNC(=N)N)NC(=O)[C@H](Cc1ccc(O)cc1)NC(=O)[C@H](CO)NC(=O)[C@@H](NC(=O)[C@@H](NC(=O)[C@H](Cc1ccccc1)NC(=O)[C@@H](NC(=O)[C@H](C)NC(=O)[C@H](CC(=O)O)NC(=O)[C@@H](C)NC(=O)[C@H](Cc1ccc(O)cc1)NC)[C@@H](C)CC)[C@@H](C)O)[C@@H](C)O)C(C)C)[C@@H](C)CC)C(=O)N[C@@H](CC(=O)O)C(=O)N[C@@H](CCCNC(=N)N)C(=O)NC,"GH release, ELISA","male Sprague-Dawley rat, anaesthetised, serum","subcutaneous, 3 µg/kg, 0 min",,serum GH level,34.1 ± 1.2 ng/mL
N#Cc1ccc(-c2cc(=O)c3ccc4[nH]c(C(F)(F)F)nc4c3o2)cc1,Morris water maze,5xFAD mice,3 mg/kg,,swim path distance,decreased
CCCCCCCOC(=O)Cc1c(C)n(C(=O)c2ccc(Cl)cc2)c2ccc(OC)cc12,hot plate test,BALB/c mice,"100 mg/kg, 90 min",,latency of nociceptive response,16.8 ± 1.2 s
CCc1nc(-c2ccc(-c3ccc(CCC(N)(CO)CO)cc3)cc2)co1,,"Sprague-Dawley rat, peripheral blood lymphocytes","oral, 3 mg/kg, single dose",,maximal inhibition of PBLs,71%
CN(C)c1ccc(-c2oc3ccccc3c(=O)c2OCc2ccccc2)cc1,,diabetic rat,"5 mg/kg, p-nitrophenyl β-glucoside induced",,serum alanine aminotransferase,36.3 ± 2.4 IU
C[C@H](NC(=O)COC(=O)[C@H](C)NC(=O)CO)C(=O)O,,water,"pH 3, 50 °C",,depolymerization rate constant,0.013 h⁻¹
Cc1ccc(N(CCc2nnc(S)o2)S(=O)(=O)c2ccc(C)cc2)cc1,radiant heat tail flick,rat,100 mg/kg,,analgesic protection,76.3%
CC[C@H](C)[C@H](NC(=O)[C@H](Cc1c[nH]cn1)NC(=O)[C@@H]1CSSC[C@H](NC(=O)[C@H](Cc2c[nH]cn2)NC(=O)[C@H](Cc2ccccc2)NC(=O)CCC(C(=O)O)N2CCN(CC(=O)O)CCN(CC(=O)O)CC2)C(=O)N2C[C@H](O)C[C@H]2C(=O)N[C@@H](Cc2ccc(O)c(Cl)c2)C(=O)N[C@@H](CC(=O)O)C(=O)N[C@@H](CC(C)C)C(=O)N1)C(=O)N[C@@H](CC(C)C)C(=O)NCc1ccc(CNC(=O)CCC(C(=O)O)N2CCN(CC(=O)O)CCN(CC(=O)O)CC2)cc1 (stereo partly shown) [gallium-68 labelled],ex vivo gamma counting,"rat, carotid crush thrombosis model, carotid artery",,relative to: thrombosed over contralateral vessel,thrombus to contralateral ratio,3 to 4
O=C(N[C@H]1CNC1=O)OCCCCC1CCCCC1,in vivo efficacy,mouse EAE model,dose not given,,EAE disease score,no effect
CC[C@H](C)[C@H](NC(=O)[C@H](CC(N)=O)NC(=O)[C@H](CC(N)=O)NC(=O)[C@H](CCCNC(=N)N)NC(=O)[C@H](CC(N)=O)NC(=O)[C@H](CCCNC(=N)N)NC(=O)[C@H](CCCCN)NC(=O)[C@@H](NC(=O)[C@H](CC(N)=O)NC(=O)[C@H](CCSC)NC(=O)[C@H](CC(C)C)NC(=O)[C@H](Cc1c[nH]c2ccccc12)NC(=O)[C@H](CCC(N)=O)NC(=O)[C@@H](NC(=O)[C@H](Cc1ccccc1)NC(=O)[C@H](CC(=O)O)NC(=O)[C@H](CCC(N)=O)NC(=O)[C@H](C)NC(=O)[C@H](CCCNC(=N)N)NC(=O)[C@H](CCCNC(=N)N)NC(=O)[C@H](CO)NC(=O)[C@H](CC(=O)O)NC(=O)[C@H](CC(C)C)NC(=O)[C@H](Cc1ccc(O)cc1)NC(=O)[C@H](CCCCN)NC(=O)[C@H](CO)NC(=O)[C@H](Cc1ccc(O)cc1)NC(=O)[C@H](CC(=O)O)NC(=O)[C@H](CO)NC(=O)[C@@H](NC(=O)[C@H](Cc1ccccc1)NC(=O)[C@@H](NC(=O)CNC(=O)[C@H](CCC(=O)O)NC(=O)[C@@H](CO)NC(=O)[C@@H](N)Cc1c[nH]cn1)[C@@H](C)O)[C@@H](C)O)C(C)C)[C@@H](C)O)C(=O)N[C@@H](C)C(=O)N[C@@H](CSCC(=O)NCCOCCOCCOCCOCCC(=O)O[C@H]1CC[C@@]2(C)C(=CC[C@H]3[C@@H]4CC[C@H]([C@H](C)CCCC(C)C)[C@@]4(C)CC[C@@H]32)C1)C(N)=O,,"diet-induced obese mice, plasma","subcutaneous, 1.9 µmol/kg, 14 days, chronic dosing",,β-hydroxybutyrate level,7.2 ± 0.4 mg/dL
CC[C@H]1[C@@H](O)[C@@H]2[C@H](CC[C@]3(C)[C@@H]([C@H](C)CCOS(=O)(=O)[O-])CC[C@@H]23)[C@@]2(C)CC[C@@H](O)C[C@@H]12.[Na+],histology,"ob/ob NASH mouse model, liver","oral, 10 mg/kg once daily, before treatment, baseline of 8 week study, scale 0 to 2",direction not given,ballooning score,0.8 ± 0.1
CCCC[C@H](NC(=O)[C@@H](NC(=O)[C@H](CC(=O)O)NC(=O)[C@H](CCC(N)=O)NC(=O)[C@H](CC(C)C)NC(=O)[C@H](CC(C)C)NC(=O)[C@H](CCCN)NC(=O)[C@H](CCCNC(=N)N)NC(=O)[C@H](C)NC(=O)[C@H](CO)NC(=O)[C@H](CC(C)C)NC(=O)[C@H](CCC(N)=O)NC(=O)[C@H](CC)NC(=O)[C@H](CC(C)C)NC(=O)[C@@H](NC(=O)[C@H](CCCN)NC(=O)[C@H](CCCNC(=N)N)NC(=O)[C@H](Cc1ccc(O)cc1)NC(=O)[C@H](CO)NC(=O)[C@H](CCC(N)=O)NC(=O)[C@@H](NC(=O)[C@H](Cc1ccccc1)NC(=O)[C@@H](NC(=O)[C@H](C)NC(=O)[C@H](CC(=O)O)NC(=O)[C@@H](C)NC(=O)[C@H](Cc1ccc(O)cc1)NC)[C@@H](C)CC)[C@@H](C)O)C(C)C)[C@@H](C)CC)C(=O)N[C@@H](CC(=O)O)C(=O)N[C@@H](CCCNC(=N)N)C(=O)NC,"GH release, ELISA","male Sprague-Dawley rat, anaesthetised, serum","subcutaneous, 3 µg/kg, 15 min",,serum GH level,609 ± 35.3 ng/mL
CC(C)c1cnc(-c2cc(Cl)ccc2F)cc1Nc1ccncc1C(=O)NC(CO)CO,measured: pSMAD2,"4T1 tumour-bearing mouse, tumour",100 mg/kg twice daily,relative to: vehicle,maximum inhibition,93%
COc1ccc(C2CC(c3ccc(C)cc3)=Nc3ccccc3S2)cc1OC (stereo not shown),,"Wistar rat, streptozotocin-induced diabetes, serum","20 mg/kg, 28 days",,serum ALT,20.1 ± 2.12 IU/L
COc1ccc(-c2oc3ccccc3c(=O)c2OCc2ccccc2)cc1,,diabetic rat,"7.5 mg/kg, p-nitrophenyl β-glucoside induced",,serum alanine aminotransferase,33.4 ± 2.5 IU
CCCCCCOC(=O)Cc1c(C)n(C(=O)c2ccc(Cl)cc2)c2ccc(OC)cc12,,"BALB/c mice, acetic acid writhing","intraperitoneal, 10 mg/kg, 20 min count",,writhing count,14.7 ± 1.89
CCCC[C@H](NC(=O)[C@@H](NC(=O)[C@H](CC(=O)O)NC(=O)[C@H](CCC(N)=O)NC(=O)[C@H](CC(C)C)NC(=O)[C@H](CC(C)C)NC(=O)[C@H](CCCN)NC(=O)[C@H](CCCNC(=N)N)NC(=O)[C@H](C)NC(=O)[C@H](CO)NC(=O)[C@H](CC(C)C)NC(=O)[C@H](CCC(N)=O)NC(=O)[C@H](CC)NC(=O)[C@H](CC(C)C)NC(=O)[C@@H](NC(=O)[C@H](CCCN)NC(=O)[C@H](CCCNC(=N)N)NC(=O)[C@H](Cc1ccc(O)cc1)NC(=O)[C@H](CO)NC(=O)[C@H](CCC(N)=O)NC(=O)[C@@H](NC(=O)[C@H](Cc1ccccc1)NC(=O)[C@@H](NC(=O)[C@H](C)NC(=O)[C@H](CC(=O)O)NC(=O)[C@H](C)NC(=O)[C@H](Cc1ccc(O)cc1)NC)[C@@H](C)CC)[C@@H](C)O)C(C)C)[C@@H](C)CC)C(=O)N[C@@H](CC(=O)O)C(=O)NCCCCNC(=N)N,"GH release, ELISA","male rat, anaesthetised, serum","intravenous, 1 µg/kg, 5 min",,serum GH level,632 ± 110 ng/mL
CCOC(=O)c1cc2c(N)c(C(=O)OC)sc2nc1C,,Sprague-Dawley rats,"subcutaneous, 100 mg/kg",,duration of diuretic activity,~6 h
Cc1ncc([N+](=O)[O-])n1CCOCc1nnc(SCC(=O)c2ccc([N+](=O)[O-])cc2)o1,,,"50 µg/mL, 45 min",,DPPH scavenging,60.2 ± 1.45%

# Repeated from above:
SMILES,test,test system,conditions,scale,quantity,value
CC(C)(O)c1ccc(N2Cc3c(ccnc3-c3ccc(F)cc3OCC(F)(F)F)C2=O)cc1,,"Gaucher disease mouse model, brain","30 mg/kg, single dose",relative to: vehicle,glucosylsphingosine level,80 ± 2%
O=c1c(OCc2ccccc2)c(-c2ccc([N+](=O)[O-])cc2)oc2ccccc12,,diabetic rat,"5 mg/kg, 28 days, p-nitrophenyl β-glucoside induced",,serum LDL cholesterol,140 ± 4.14 mg/dL
CC(=O)Nc1cccc(OCc2nnc(SCc3ccccc3C)o2)c1,forced swimming test,mice,"40 mg/kg, 0.5 h",relative to: control,immobility duration decrease,15.6%
